Measurements collected from several papers.
Lines come from different studies, so protocols differ. Changes are numbered by the printed parent chain. ± gives the spread as reported.
mutY full length assumed E37S: mutY full length assumed E37S (Escherichia coli, UniProt P17802)
capW: capW 1-299 (Escherichia coli, UniProt P0DX76)
Chain of UniProt P0DX76 (whole entry, looked up): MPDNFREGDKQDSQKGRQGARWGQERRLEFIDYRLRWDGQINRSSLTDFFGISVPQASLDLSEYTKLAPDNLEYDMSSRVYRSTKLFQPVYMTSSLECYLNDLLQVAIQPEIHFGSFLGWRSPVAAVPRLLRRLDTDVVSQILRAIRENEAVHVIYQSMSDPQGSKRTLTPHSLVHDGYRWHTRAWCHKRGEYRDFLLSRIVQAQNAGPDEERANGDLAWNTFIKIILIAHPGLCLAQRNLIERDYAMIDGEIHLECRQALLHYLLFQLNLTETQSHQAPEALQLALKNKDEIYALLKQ
protein holo R370Q/R371Q: protein holo R370Q/R371Q (Bacillus clausii, UniProt A0A268NVG2)
P1: ITGA2 cytoplasmic domain peptide (Homo sapiens); WKLGFFKRKYEKM
P2: Tln1 F3 domain, 309-405 (Mus musculus); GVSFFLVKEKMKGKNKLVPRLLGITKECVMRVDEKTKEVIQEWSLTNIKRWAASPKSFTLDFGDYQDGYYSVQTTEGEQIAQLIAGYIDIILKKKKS; partner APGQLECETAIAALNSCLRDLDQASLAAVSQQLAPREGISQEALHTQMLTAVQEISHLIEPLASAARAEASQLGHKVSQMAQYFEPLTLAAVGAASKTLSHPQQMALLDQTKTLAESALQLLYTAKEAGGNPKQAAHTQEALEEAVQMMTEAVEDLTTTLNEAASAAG
P3: PRDX1 residues 1-199; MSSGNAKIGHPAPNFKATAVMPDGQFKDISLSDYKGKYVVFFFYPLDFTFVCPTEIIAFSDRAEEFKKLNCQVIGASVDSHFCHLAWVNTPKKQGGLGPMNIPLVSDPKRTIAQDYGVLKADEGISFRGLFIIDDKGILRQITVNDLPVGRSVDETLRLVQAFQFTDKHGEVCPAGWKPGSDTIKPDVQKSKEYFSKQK
B1: IL18 mature form (Mus musculus, UniProt P70380); chain FGRLHCTTAVIRNINDQVLFVDKRQPVFEDMTDIDQSASEPQTRLIIYMYKDSEVRGLAVTLSVKDSKMSTLSCKNKIISFEEMDPPENIDDIQSDLIFFQKRVPGHNKMEFESSLYEGHFLACQKEDDAFKLILKKKDENGDKSVMFTLTNLHQS
P4: PRDX1 (Homo sapiens); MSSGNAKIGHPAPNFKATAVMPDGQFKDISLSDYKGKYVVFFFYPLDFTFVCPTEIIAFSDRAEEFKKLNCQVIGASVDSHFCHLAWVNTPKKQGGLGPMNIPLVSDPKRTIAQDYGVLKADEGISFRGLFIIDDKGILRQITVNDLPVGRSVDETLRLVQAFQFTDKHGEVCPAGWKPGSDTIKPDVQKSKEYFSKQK
Chain of UniProt Q96T21 (whole entry, looked up): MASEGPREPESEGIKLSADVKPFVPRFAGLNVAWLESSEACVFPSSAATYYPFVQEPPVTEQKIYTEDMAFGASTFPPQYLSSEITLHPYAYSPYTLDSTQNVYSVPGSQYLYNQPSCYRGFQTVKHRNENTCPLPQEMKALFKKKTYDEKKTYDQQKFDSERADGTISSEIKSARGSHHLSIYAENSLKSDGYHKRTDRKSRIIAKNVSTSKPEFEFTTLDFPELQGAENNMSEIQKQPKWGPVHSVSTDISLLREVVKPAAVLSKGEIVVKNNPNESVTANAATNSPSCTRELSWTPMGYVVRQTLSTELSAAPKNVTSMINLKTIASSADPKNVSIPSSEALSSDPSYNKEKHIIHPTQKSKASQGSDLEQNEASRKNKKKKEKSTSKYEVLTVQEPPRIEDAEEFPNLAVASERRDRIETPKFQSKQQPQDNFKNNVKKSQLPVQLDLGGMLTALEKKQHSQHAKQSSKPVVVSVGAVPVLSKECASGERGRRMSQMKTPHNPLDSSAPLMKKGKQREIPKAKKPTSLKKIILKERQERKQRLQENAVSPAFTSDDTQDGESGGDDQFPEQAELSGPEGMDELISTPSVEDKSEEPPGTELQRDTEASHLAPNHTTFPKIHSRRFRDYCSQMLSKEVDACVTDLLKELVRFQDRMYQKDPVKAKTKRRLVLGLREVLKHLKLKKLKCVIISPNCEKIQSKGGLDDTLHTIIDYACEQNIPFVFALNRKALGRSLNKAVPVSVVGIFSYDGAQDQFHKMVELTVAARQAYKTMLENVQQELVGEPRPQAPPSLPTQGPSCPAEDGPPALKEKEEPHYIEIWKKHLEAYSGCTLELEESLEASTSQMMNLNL
Chain of UniProt Q01085 (whole entry, looked up): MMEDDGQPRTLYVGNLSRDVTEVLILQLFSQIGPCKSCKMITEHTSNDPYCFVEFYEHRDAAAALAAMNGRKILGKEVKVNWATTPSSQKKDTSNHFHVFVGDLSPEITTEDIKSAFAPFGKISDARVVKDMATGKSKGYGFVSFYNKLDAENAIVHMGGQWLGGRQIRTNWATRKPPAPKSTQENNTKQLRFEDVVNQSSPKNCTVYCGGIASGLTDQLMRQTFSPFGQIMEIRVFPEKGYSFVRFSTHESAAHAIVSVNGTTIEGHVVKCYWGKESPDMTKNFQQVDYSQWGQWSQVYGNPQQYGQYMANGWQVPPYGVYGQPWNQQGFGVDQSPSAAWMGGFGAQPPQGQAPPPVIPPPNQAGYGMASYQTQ
Chain of UniProt Q9Z0M9 (whole entry, looked up): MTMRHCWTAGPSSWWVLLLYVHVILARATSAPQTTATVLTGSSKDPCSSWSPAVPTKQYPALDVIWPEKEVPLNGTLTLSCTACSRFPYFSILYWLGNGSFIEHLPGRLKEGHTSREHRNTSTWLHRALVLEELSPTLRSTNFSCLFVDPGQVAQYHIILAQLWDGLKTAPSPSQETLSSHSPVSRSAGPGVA
Chain of UniProt Q16637 (whole entry, looked up): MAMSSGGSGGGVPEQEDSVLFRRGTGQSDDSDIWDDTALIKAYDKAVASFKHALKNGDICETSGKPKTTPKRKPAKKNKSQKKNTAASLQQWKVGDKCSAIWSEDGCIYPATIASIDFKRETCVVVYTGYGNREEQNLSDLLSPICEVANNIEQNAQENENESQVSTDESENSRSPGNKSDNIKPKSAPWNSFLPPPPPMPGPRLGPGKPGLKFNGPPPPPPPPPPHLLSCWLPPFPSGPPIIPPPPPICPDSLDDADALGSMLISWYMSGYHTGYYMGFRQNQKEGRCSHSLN
Chain of UniProt P27695 (whole entry, unmodified, looked up): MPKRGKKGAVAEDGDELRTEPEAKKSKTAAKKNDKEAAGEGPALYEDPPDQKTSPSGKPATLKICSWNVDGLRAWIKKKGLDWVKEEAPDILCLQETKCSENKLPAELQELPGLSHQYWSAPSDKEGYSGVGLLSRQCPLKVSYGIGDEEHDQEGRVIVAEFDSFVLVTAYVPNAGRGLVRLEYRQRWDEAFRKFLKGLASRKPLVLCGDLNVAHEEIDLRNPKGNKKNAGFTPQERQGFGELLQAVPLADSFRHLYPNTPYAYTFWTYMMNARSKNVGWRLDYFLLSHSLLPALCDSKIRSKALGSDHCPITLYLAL
Chain of UniProt Q01196 (whole entry, looked up): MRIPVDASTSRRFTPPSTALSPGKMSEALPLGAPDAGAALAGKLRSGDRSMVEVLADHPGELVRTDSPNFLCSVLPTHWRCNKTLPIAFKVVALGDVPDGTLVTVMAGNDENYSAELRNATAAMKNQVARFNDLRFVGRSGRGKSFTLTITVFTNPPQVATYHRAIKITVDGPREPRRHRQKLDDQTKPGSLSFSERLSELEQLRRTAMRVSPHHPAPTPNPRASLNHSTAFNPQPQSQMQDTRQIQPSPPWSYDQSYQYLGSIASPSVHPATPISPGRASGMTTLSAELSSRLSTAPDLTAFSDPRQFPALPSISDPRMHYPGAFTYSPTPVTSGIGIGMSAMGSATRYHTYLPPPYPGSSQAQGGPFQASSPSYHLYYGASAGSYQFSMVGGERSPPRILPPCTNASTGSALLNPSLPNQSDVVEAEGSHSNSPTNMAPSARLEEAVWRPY
Chain of UniProt P21499 (whole entry, looked up): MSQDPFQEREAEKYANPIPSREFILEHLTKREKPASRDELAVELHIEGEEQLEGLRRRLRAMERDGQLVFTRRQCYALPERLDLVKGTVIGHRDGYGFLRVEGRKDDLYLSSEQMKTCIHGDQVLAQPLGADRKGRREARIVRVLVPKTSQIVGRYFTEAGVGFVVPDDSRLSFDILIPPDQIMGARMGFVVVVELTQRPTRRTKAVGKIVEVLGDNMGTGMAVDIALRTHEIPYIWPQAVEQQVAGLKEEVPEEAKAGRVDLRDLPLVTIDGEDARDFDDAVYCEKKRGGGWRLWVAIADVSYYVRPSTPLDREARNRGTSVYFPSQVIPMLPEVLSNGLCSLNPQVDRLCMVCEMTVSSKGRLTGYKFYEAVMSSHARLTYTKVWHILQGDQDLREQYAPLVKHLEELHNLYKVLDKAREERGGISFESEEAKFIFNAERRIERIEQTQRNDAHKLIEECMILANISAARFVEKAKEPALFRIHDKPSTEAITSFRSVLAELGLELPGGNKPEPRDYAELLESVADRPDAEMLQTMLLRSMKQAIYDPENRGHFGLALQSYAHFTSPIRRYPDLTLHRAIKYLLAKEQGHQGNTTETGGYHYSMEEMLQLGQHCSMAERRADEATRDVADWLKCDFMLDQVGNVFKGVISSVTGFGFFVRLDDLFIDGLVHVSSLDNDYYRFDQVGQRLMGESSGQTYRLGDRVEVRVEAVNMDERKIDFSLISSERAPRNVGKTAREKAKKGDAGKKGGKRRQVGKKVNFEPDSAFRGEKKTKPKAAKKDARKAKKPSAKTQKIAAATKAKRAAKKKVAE
Chain of UniProt P19525 (whole entry, looked up): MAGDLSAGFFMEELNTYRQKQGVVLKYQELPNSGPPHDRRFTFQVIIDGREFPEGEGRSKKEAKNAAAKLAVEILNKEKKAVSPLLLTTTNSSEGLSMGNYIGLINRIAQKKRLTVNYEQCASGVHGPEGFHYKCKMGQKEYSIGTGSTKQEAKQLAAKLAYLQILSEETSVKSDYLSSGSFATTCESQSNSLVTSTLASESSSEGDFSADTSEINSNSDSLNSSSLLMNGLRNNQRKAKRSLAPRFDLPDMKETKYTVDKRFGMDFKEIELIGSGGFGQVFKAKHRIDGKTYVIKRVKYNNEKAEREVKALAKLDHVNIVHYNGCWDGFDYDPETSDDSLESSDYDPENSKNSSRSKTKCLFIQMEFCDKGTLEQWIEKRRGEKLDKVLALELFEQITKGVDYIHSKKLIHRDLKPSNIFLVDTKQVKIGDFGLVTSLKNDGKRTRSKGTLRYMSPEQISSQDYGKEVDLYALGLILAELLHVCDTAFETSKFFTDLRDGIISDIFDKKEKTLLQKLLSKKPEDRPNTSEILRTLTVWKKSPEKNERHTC

Molecule | tested on | assay | test system | conditions | scale | endpoint | result
P1 F5A F6A | RASA1 GAP domain 714-1047 (Homo sapiens) | fluorescence polarisation | – | – | baseline: unchanged protein, higher = more binding | relative binding | 29
GGGGGGUUUUUUUUUUUUUUUUUGGGGG (ssRNA) | TIAL1 96-175 (Homo sapiens, UniProt Q01085) | SPR | RNA | – | – | Kd | 5300 ± 200 nM
DNA 1 CGATCATGGAGGCTAACGCTCCCGTTACAG / DNA 2 CTGTAACGGGAGCGATAGCCTCCATGATCG (dsDNA; 30 bp, central 8-oxoadenine:A) | mutY full length assumed E37S | EMSA | double-stranded DNA | – | – | Kd | 0.04 ± 0.02 nM
CTGACCTCATCATCTCCCTACACACTGACACTTACAATGTGGTCAGTT (dsDNA) | protein holo K360Q/R364Q (Bacillus clausii, UniProt A0A268NVG2) | fluorescence titration | double-stranded DNA, one strand shown | Mg2+ 5 mM, apparent, Hill fit, together with: PLP | – | Kd | 54.8 ± 5.4 nM
DNA 1 CGATCATGGAGGCTAGCGCTCCCGTTACAG / DNA 2 CTGTAACGGGAGCGATAGCCTCCATGATCG (dsDNA; 30 bp, central 8-aminoguanine:A) | mutY full length assumed E37S | EMSA | double-stranded DNA | – | – | Kd | 0.5 ± 0.2 nM
AAAA (ssRNA) | rnr full length assumed (Escherichia coli, UniProt P21499) | filter binding | RNA | EDTA present | – | Kd | 1200 ± 90 nM
P2 M11A | Tln1 residues 1655-1822 (Mus musculus) | NMR titration | – | – | – | Kd | 14000 nM
ACAGGUGGGCGCGUGAUUAUGUUUGUACGAAGACUGU (ssRNA; 4'-thio at all pyrimidines, stem-bulge-loop) | F2 alpha-thrombin (Homo sapiens) | filter binding | modified nucleic acid | together with: Mg2+ 1 mM | – | Kd | 4.7 nM
P1 L3A G4A | RASA1 GAP domain 714-1047 (Homo sapiens) | fluorescence polarisation | – | – | baseline: unchanged protein, higher = more binding | relative binding | 7
DNA 1 CGATCATGGAGGCTAGCGCTCCCGTTACAG / DNA 2 CTGTAACGGGAGCGATAGCCTCCATGATCG (dsDNA; 30 bp, central 8-thioguanine:A) | mutY full length assumed E37S | EMSA | double-stranded DNA | – | – | Kd | < 0.003 nM
CGGGGCGGGCCGGGGGCGGGGT (G-quadruplex DNA; parallel in K+) | APEX1 34-318 D210A/del1-33 (Homo sapiens, UniProt P27695) | fluorescence anisotropy | folded DNA | K+ 50 mM, together with: Mg2+ 10 mM | – | Kd | 230 ± 40 nM
GCAGCCCAUGAUGGCUGAAUCCGAAAUCCUCGAUGGGUCCAGCUUGAUGUCUUUGCAGC (structured RNA) | SECISBP2 (Homo sapiens, UniProt Q96T21) | EMSA | folded RNA | – | – | Kd | 340 ± 15 nM
GGGGGGG (ssDNA) | capW | fluorescence polarization | single-stranded DNA | range over sequences | – | Kd | 9540 nM
CTGACCTCATCATTTTCTTAAAAACTGACACTTACAATGTGGTCAGTT (dsDNA) | protein holo R370Q/R371Q | fluorescence titration | double-stranded DNA, one strand shown | Mg2+ 5 mM, apparent, Hill fit, together with: PLP | – | Kd | 18.8 ± 0.8 nM
UGGAGCCUUCCACCCCGGCACUCAUGACGGUCUGCCUGAAAACCAGCCCGCUGGUGGGGCAGUCCCGAGGACCUGGCGUGCAUCCCCGCCGGAGGAAGGUCCA (structured RNA) | Sbp2 full length assumed S95I/V96I/R97L/V98K/Y99E (Drosophila melanogaster, UniProt Q9VSH1) | EMSA | folded RNA | – | – | Kd | 40 ± 6 nM
DNA 1 CGATCATGGAGGCTAGCGCTCCCGTTACAG / DNA 2 CTGTAACGGGAGCGATAGCCTCCATGATCG (dsDNA; 30 bp, central 1-methyl-8-oxoguanine:A) | mutY full length assumed E37S | EMSA | double-stranded DNA | – | – | Kd | 0.3 ± 0.2 nM
CTGACCAAAACAAAAAATCTCCAAAAAACTCGAAAAAAGTGGTCAGTT (dsDNA) | protein holo R370Q/R371Q | fluorescence titration | double-stranded DNA, one strand shown | Mg2+ 5 mM, apparent, Hill fit, together with: PLP | – | Kd | 46.5 ± 3.3 nM
GCAGCCCAUGAUGGCUGAAUCCGAAAUCCUCGAUGGGUCCAGCUUGAUGUCUUUGCAGC (RNA hairpin (Homo sapiens); K-turn internal loop) | SECISBP2 515-854 (Homo sapiens, UniProt Q96T21) | EMSA | – | together with: Mg2+ 1.5 mM | – | Kd | 160 nM
UGGAGCCUUCCACCCCGGCACUCAUGACGGUCUGCCGAAAUCCUCGAUGGCAGUCCCGAGGACCUGGCGUGCAUCCCCGCCGGAGGAAGGUCCA (structured RNA) | SECISBP2 (Homo sapiens, UniProt Q96T21) | EMSA | folded RNA | – | – | Kd | 530 ± 120 nM
TTTTTTT (ssDNA) | capW | fluorescence polarization | single-stranded DNA | together with: Mg2+ 5 mM | – | Kd | 9540 nM
P3 D47A | DOK3 fragment | pull-down | – | without SAB, read off a plot | higher = more binding | IP/Input | 0.47 IP/Input
GGGACACAAUGGACGACCCACCACGGCGAGGUAUCCCAUUGCCCCUAACGGCCGACAUGAGAG (structured RNA) | RUNX1 1-188 (Homo sapiens, UniProt Q01196) | SPR | folded RNA | – | – | Kd | 3.6 ± 0.1 nM
RNA 1 GGAGGAUGUUAAUUGGCGUGUCUUGUCUGCAACGGUAUUC / RNA 2 GAAUACCGUUGCAGACAAGACACGCCAAUUAACAUCCUCC (dsRNA) | EIF2AK2 1-551 (Homo sapiens, UniProt P19525) | sedimentation velocity AUC | double-stranded RNA | Kd1 first PKR | – | Kd | 166 nM
B1 (IL18 mature form) | Il18bp (Mus musculus, UniProt Q9Z0M9) | SPR | – | read off a plot | – | Kd | 0.0011 nM
GGGCUCACCACGCACGUGCGCUGGACUAUUACGCGUGAGGCCUCACCACGGCAAGCU (structured RNA) | Survival motor neuron protein 1-294 (Homo sapiens, UniProt Q16637) | filter binding | folded RNA | apparent | – | Kd | 20 nM
GCAGCCCAUGAUGGCUGAAUCCGAAAUCCUCGAUGGGUCCAGGUUGAUGUCUUUGCAGC (structured RNA; internal loop hairpin) | SECISBP2 515-854 (Homo sapiens, UniProt Q96T21) | EMSA | folded RNA | – | – | Kd | 800 nM
P4 F48A | DOK3 | co-IP | HEK-293T | read off a plot, together with: SAB 60 µmol/L | higher = more binding | IP/Input | 0.5 IP/Input
TTTTTTTTTTTTTTTTTTTT (ssDNA) | TIAL1 1-94 (Homo sapiens, UniProt Q01085) | SPR | single-stranded DNA | – | – | Kd | 20900 ± 550 nM

Excerpt of the above:
Molecule | tested on | assay | test system | conditions | scale | endpoint | result
RNA 1 GGAGGAUGUUAAUUGGCGUGUCUUGUCUGCAACGGUAUUC / RNA 2 GAAUACCGUUGCAGACAAGACACGCCAAUUAACAUCCUCC (dsRNA) | EIF2AK2 1-551 (Homo sapiens, UniProt P19525) | sedimentation velocity AUC | double-stranded RNA | Kd1 first PKR | – | Kd | 166 nM
B1 (IL18 mature form) | Il18bp (Mus musculus, UniProt Q9Z0M9) | SPR | – | read off a plot | – | Kd | 0.0011 nM
GGGCUCACCACGCACGUGCGCUGGACUAUUACGCGUGAGGCCUCACCACGGCAAGCU (structured RNA) | Survival motor neuron protein 1-294 (Homo sapiens, UniProt Q16637) | filter binding | folded RNA | apparent | – | Kd | 20 nM
GCAGCCCAUGAUGGCUGAAUCCGAAAUCCUCGAUGGGUCCAGGUUGAUGUCUUUGCAGC (structured RNA; internal loop hairpin) | SECISBP2 515-854 (Homo sapiens, UniProt Q96T21) | EMSA | folded RNA | – | – | Kd | 800 nM
